Measurements gathered from unrelated publications.
Lines come from different studies, so protocols differ. Values joined by “and” are separate records of one study, mostly repeats; a detail may differ. pEC50, pIC50: −log10 of the molar value.

SMILES | target or system | test | test system | setting | scale | measurement | value
CN1CCCNC(=O)c2cccc(c2)C(=O)NCCCN(C)CCCNc2cccc3c2C(=O)c2cccc(c2C3=O)NCCC1 | SAS | RNA-seq, refers to: GABPB1-AS1 mRNA | – | 1 µM, 6 h | baseline: untreated cells | log2 fold change | 0.704
Cn1ncc2cc(-c3cncc(Cl)c3N3CCC4(CCNC4=O)CC3)ccc21 | LS174T | gene expression, microarray, refers to: AQP1 mRNA | – | concentration not given, 24 h | baseline: untreated cells | log2 fold change | 2.12
Cc1cccc(-c2cccc(C)n2)n1.Cc1cccc(-c2cccc(C)n2)n1.F[P-](F)(F)(F)(F)F.F[P-](F)(F)(F)(F)F.[Ru+2].c1ccc2c(-c3nc4c5cccnc5c5ncccc5c4[nH]3)c3ccccc3cc2c1 | SK-MEL-28 | cell growth or viability, resazurin | – | dark | – | pEC50 | 4.19
CC1(C)CC[C@@]2(CO)C(=C3C=C[C@@H]4[C@@]5(C)CC[C@H](O)[C@@](C)(CO)[C@@H]5CC[C@@]4(C)[C@]3(C)C[C@@H]2O)C1 | HepG2, negative control siRNA | Western blot, refers to: SIRT1 | – | concentration not given, high dose, unit not given, with: ethanol | baseline: β-actin | protein level | 1.97 and 1.33 and 1.62
O=C(C[Se]C(=O)c1ccc2ccccc2c1)Nc1cccc(C(F)(F)F)c1 | NCI60 prostate subpanel (PC-3, DU-145) | cell growth | – | 10 µM, 48 h, one-dose | – | mean growth percent | -81.8%
CNS(=O)(=O)Nc1nccc(Cc2c(C)c3ccc(Oc4ncccc4F)cc3oc2=O)c1F | CL-40 | cell viability, CellTiter-Glo | – | 7 days | – | pIC50 | 8.35
CCN(C(=O)c1cc(F)ccc1Oc1nncnc1N1CCC2(C1)CN([C@H](CCCN(C)CCOC)C(C)C)C2)C(C)C | NCI-H460 | cell growth or viability | – | 7 days | – | GI50 | > 10 µM
O=C(NCc1cc(F)cc(F)c1)[C@@]1(O)CCN(c2ccc3[nH]ccc3c2)C1=O | Anal PDX-derived tumour cells | colony formation, soft agar clonogenic | – | concentration not given, 8-10 days | – | maximal inhibition | 73%
COC(=O)c1cc(NC2=NC(=O)C(=Cc3ccc(N(C)C)cc3)S2)ccc1OC(C)=O | MCF7 | GC-MS, refers to: 3-Aminoisobutyric acid | – | 1 µM | baseline: DMSO | metabolite level | 0.54 fold change
C[C@@H](Nc1c(-c2c(F)cc(C#N)cc2F)c(Cl)nc2ncnn12)C(C)(C)C | mouse primary cortical neurons | microtubule stabilization, refers to: acetylated α-tubulin | – | 8 h, with: okadaic acid | – | minimum effective concentration | 0.3 µM
Cc1cccc(-c2cccc(C)n2)n1.Cc1cccc(-c2cccc(C)n2)n1.F[P-](F)(F)(F)(F)F.F[P-](F)(F)(F)(F)F.[Ru+2].c1cc2ccc3ccc(-c4nc5c6cccnc6c6ncccc6c5[nH]4)c4ccc(c1)c2c34 | SK-MEL-28 | cell growth or viability, resazurin | – | dark | – | pEC50 | 4.41
CN1CCN(C(=O)c2ccc(-c3cc4c(N5CCC[C@H](C(=O)NCc6ccc(OC(F)(F)F)cc6)C5)ncnc4[nH]3)cc2)CC1 | NCI-H3122 | cell growth or viability, MTT | – | 0.008 µg/mL, 72 h | – | inhibition | 8.5%
CO[C@@H]1[C@@H](OC(N)=O)[C@@H](O)[C@H](Oc2ccc3c(O)c(NC(=O)c4ccc(O)c(CC=C(C)C)c4)c(=O)oc3c2C)OC1(C)C | HCT-116 parental | – | – | 200 µM, replicate 1 | – | colony count | 5.5
C=C(NC(=O)c1csc(-c2cccnc2)n1)C(=O)NC(=C)C(=O)OC | SCC-90 | cell viability | – | – | – | pEC50 | 5.17
O=C(C[Se]C(=O)C12CC3CC(CC(C3)C1)C2)Nc1cccc(C(F)(F)F)c1 | NCI60 prostate subpanel (PC-3, DU-145) | total growth inhibition, inhibitor | – | five-dose | – | mean TGI | 7.49 µM
COc1ccccc1-c1ccncc1C(=O)Nc1nnc(OCc2ccc(Cl)cc2)s1 | DLD-1 parental | – | – | 1 µM, mean of replicates | – | colony count | 78.5 and 68.5 and 79.5

SMILES | target or system | test | test system | setting | scale | measurement | value
O=C(C[Se]C(=O)c1cc2ccccc2[nH]1)Nc1cccc(C(F)(F)F)c1 | NCI60 prostate subpanel (PC-3, DU-145) | cell growth, inhibitor | – | five-dose | – | GI50 | 1.51 µM
COC1CN([C@H]2CC[C@H]([C@@]3(C)Oc4c(Cl)cc(C(=O)NCc5c(SC)cc(C)[nH]c5=O)c(C)c4O3)CC2)C1 | – | RNA-seq, refers to: HECTD2 | human, whole blood | dose not given, 24 h | baseline: pretreatment baseline | log2 fold change | 1.7
COc1cc(N2CCN(C(=O)C3CCCN3)CC2)ccc1Nc1ncc(Cl)c(Nc2ccccc2P(C)(C)=O)n1 (centres unmarked) | Ba/F3 EML4-ALK | annexin V flow cytometry | – | concentration not given, 24 h | – | late apoptotic cells | 17%
C#CCOC(=O)[C@@]1(C)C=C(C(=O)Nc2cccc(C(=O)Nc3ccc(C)c(Nc4nccc(-c5cccnc5)n4)c3)c2)C(=O)CC1 | SH-SY5Y MKK7 active | western blot, refers to: phospho-c-Jun Ser73 | – | 1 µM, unit not given | baseline: doxycycline without inhibitor | phospho-c-Jun level | 0.382
O=C(O)c1ccc(-c2ccc(O)cc2)c2c1C=C(c1ccc(O)cc1)OC2(c1ccc(O)cc1)c1ccc(O)cc1 | NCI-H460 | annexin V/PI flow cytometry | – | 20 µM, 24 h | – | apoptotic cells | 22.2%
Cc1cc(NC2CCN(C)CC2)ccc1-c1cc2c(N3CCC[C@H](C(=O)N[C@H](C)c4ccccc4)C3)ncnc2[nH]1 | NCI-H3122 | cell growth or viability, MTT | – | 0.0016 µg/mL, 72 h | – | inhibition | 7.64%
C=CC(=O)N1[C@H](c2ccc3c(c2)OCO3)c2[nH]c3ccccc3c2C[C@@H]1C(=O)NC | rat DRG neurons | – | – | 0.1235 µM, 48 h, with: vincristine 40 nM | – | neuron degeneration | 61.4% and 58.1%
C=CC(=O)N1CCC[C@@H](n2nc(-c3ccc(Oc4ccccc4)cc3)c3c(N)ncnc32)C1 | U2932 | cell growth or viability, WST-1 | – | 72 h | – | GI50 | > 10 µM
CSC(=S)N/N=C(\C)c1ccc(Nc2nnc(-c3ccc(Cl)cc3)c3ccccc23)cc1 | HepG2 | cell growth or viability, MTT | – | 2.5 µM | – | cell death | 92.8%
Cc1ncsc1-c1ccc(C(C)NC(=O)C2CC(O)CN2C(=O)C(NC(=O)CCCCCCCCCCN2CCCC(Nc3ncc(Cl)c(Nc4ccccc4S(=O)(=O)C(C)C)n3)C2)C(C)(C)C)cc1 (centres unmarked) | 22Rv1 | RNA-seq, refers to: SORBS2 mRNA | – | concentration not given | baseline: DMSO | log2 fold change | -2
CNc1ncnc2c1ncn2C1OC(CO)C(O)C1O (centres unmarked) | mock-transfected cells | TGFα shedding, agonist | – | 10 nM | baseline: unstimulated vehicle control | AP-TGFα release | -0.25% and 0.5% and 0.27%
O=C(C[Se]C(=O)c1ccccc1Nc1ccccc1)Nc1cccc(C(F)(F)F)c1 | NCI60 prostate subpanel (PC-3, DU-145) | cell growth, inhibitor | – | five-dose | – | GI50 | 1.75 µM
CC(C)c1ccc(N(C)c2ccc3c(c2)OCC[C@H]3CNc2cnccc2C(=O)O)cc1 | TE-8 | cell growth or viability, ATP luminescence | – | 7 days | – | pIC50 | ≤ 5.00
CCN(CC)CC(=O)Nc1cccc(-n2cc(-c3ccc4ccc(-c5cn(-c6cccc(NC(=O)CN(CC)CC)c6)nn5)cc4c3)nn2)c1 | RCC4 | PCR angiogenesis array, refers to: EDN1 | – | 5 x IC50, 2 h, normoxia | baseline: untreated | fold regulation | 1.04
COC1=C2CC(C)CC(OC)C(O)C(C)C=C(C)C(OC(N)=O)C(OC)C=CC=C(C)C(=O)NC(=CC1=O)C2=O (centres unmarked) | Rh30 | ChIP-seq, refers to: H3K36me3 peak | – | concentration not given, RBFA intron | baseline: untreated control | log fold change | -0.5
CN1CC[C@@H](COc2cnc(C#N)cc2-c2ccn3nc(NC(=O)C4CC4)cc3c2)C1 | human PBMC, myeloid cells | single-cell RNA-seq | – | 10 µM, with: LPS | baseline: LPS alone | number of upregulated genes | 61 genes

A few entries again:
SMILES | target or system | test | test system | setting | scale | measurement | value
CNS(=O)(=O)Nc1nccc(Cc2c(C)c3ccc(Oc4ncccc4F)cc3oc2=O)c1F | CL-40 | cell viability, CellTiter-Glo | – | 7 days | – | pIC50 | 8.35
CN1CC[C@@H](COc2cnc(C#N)cc2-c2ccn3nc(NC(=O)C4CC4)cc3c2)C1 | human PBMC, myeloid cells | single-cell RNA-seq | – | 10 µM, with: LPS | baseline: LPS alone | number of upregulated genes | 61 genes
C=CC(=O)N1[C@H](c2ccc3c(c2)OCO3)c2[nH]c3ccccc3c2C[C@@H]1C(=O)NC | rat DRG neurons | – | – | 0.1235 µM, 48 h, with: vincristine 40 nM | – | neuron degeneration | 61.4% and 58.1%
COC(=O)c1cc(NC2=NC(=O)C(=Cc3ccc(N(C)C)cc3)S2)ccc1OC(C)=O | MCF7 | GC-MS, refers to: 3-Aminoisobutyric acid | – | 1 µM | baseline: DMSO | metabolite level | 0.54 fold change
